Assay results of several laboratories.
A part holds a random share of what one study measured. Changes are numbered by the printed parent chain.

Block 1
Target: RING finger protein unkempt homolog, zinc fingers 1-6, GST-SBP tag (UNK, Homo sapiens, UniProt Q9C0B0, residues 30-357)
Sequence of UniProt Q9C0B0 (30-357, looked up): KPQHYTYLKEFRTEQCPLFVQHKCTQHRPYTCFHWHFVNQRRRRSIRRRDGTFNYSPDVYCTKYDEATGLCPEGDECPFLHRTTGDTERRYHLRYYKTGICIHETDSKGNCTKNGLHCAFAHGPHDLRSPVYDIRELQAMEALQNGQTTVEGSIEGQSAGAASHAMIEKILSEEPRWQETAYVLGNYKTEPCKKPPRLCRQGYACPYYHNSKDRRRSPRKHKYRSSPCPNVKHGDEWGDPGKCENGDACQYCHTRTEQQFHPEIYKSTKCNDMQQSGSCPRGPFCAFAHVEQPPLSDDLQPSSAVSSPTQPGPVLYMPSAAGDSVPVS
Method: RNA Bind-n-Seq
Molecule type: RNA
Medium: in vitro
Concentration: not given
Setting: RNA with constant flanks, ends assumed
Reference: input RNA pool
Direction: higher = stronger binding
Quantity: bound/input enrichment
GGGAGUUCUACAGUCCGACGAUCGAAUUGGUACAAGCCAUGUUUCCCAAACUGAACAAUCAAGAAAGAGUUACACUGUCCGACCUUAUGACCGCCAAGAUAACGAGUGAUGAGCCACUCACCAAGGAUGACAUCCCUGUGUUUCAACAGAGGAUUGAGCAUCA: 0.136 ratio
GGGAGUUCUACAGUCCGACGAUCUUAAUGUUUAAGUUCAAAUUAAUGUAGAGCCCUCCCUCUUUUGGGGGGUAAACUUUUUAAAUCCGGACUUACAGGAGAUCAAGAAGGAACUUUCAAAGACGGGUGAGGAGAAGUACAUAGCAACAGAGGAUUGAGCAUCA: 0.618 ratio
GGGAGUUCUACAGUCCGACGAUCUGUGCCCUGAUGGCAGCUGAAGUUUGAUUCAGAUGGGCACUUUUCUUCCCCUUCCCUGCCCCGUUUCCUUUUGUUCCUUGAGUCCACGCAGAAUUCCAUUCUCUGGUCAGCAGACAGGCUCAACAGAGGAUUGAGCAUCA: 0.331 ratio
GGGAGUUCUACAGUCCGACGAUCUUCAUUCAUGCUAAUGUUGACAUUGACUUAAUUAUCACAGAAGAACCUGAAAUUGGCAAUACCGAAAAACCUGUAGAAAUUUUUCAUAUAAUUGAGCAUUUUUGUCUUGGUAGAAGACGCCAACAGAGGAUUGAGCAUCA: 0.243 ratio

Block 2
Target: CCNA2, cyclin fold, Cln2 fusion (human)
Method: yeast growth competition, sequencing
Medium: yeast
Setting: strong parent motif
Reference: not given
Direction: higher = stronger binding
Quantity: normalised enrichment score
Parent: E2F1 docking peptide (human); PPVKRRLDFETDH; partner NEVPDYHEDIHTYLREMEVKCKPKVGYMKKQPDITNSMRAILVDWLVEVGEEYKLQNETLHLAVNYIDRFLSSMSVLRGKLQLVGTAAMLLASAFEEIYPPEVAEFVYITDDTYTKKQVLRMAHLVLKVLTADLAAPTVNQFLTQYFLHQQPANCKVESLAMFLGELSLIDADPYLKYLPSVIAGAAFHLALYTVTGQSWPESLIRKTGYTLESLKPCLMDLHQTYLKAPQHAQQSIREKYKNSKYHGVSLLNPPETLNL
PPRKRRLDFETDH [V3R]: 4.94
PPAKRRLDFETDH [V3A]: 6.01
PPVKNRLDFETDH [R5N]: 0.962
PPVKRRLMFETDH [D8M]: 6.17
PPVKERLDFETDH [R5E]: -0.0496
PPIKRRLDFETDH [V3I]: 5.51
PPVKRRLDFETSH [D12S]: 6.4

Block 3
Target: Ras GTPase-activating protein-binding protein 1, full length (G3BP1, Homo sapiens, UniProt Q13283)
Sequence of UniProt Q13283 (whole entry, looked up): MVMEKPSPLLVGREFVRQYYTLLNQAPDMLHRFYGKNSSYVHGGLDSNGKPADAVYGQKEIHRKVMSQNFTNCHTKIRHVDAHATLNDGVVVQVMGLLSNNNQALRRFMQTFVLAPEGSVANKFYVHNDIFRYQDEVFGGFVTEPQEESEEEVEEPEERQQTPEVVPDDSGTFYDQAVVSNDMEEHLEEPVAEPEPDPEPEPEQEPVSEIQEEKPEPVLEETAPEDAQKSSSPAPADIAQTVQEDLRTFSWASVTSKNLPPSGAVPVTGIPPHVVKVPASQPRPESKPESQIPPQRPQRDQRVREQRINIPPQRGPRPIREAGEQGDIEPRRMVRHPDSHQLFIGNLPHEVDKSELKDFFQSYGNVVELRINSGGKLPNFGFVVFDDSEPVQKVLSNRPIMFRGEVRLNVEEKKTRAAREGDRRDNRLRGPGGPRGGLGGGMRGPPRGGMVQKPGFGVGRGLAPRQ
Method: RNA Bind-n-Seq
Molecule type: RNA
Medium: in vitro
Concentration: 200 nM
Setting: whole 134-nt RNA, ends assumed
With: 150 mM KCl
Reference: input library
Direction: higher = stronger binding
Quantity: log2 enrichment
Constant ends, left off below: GGGAGUUCUACAGUCCGACGAUC … UGGAAUUCUCGGGUGUCAAGG
AAGUCCUGUGCUACACAUCGUAUGUACCGAAUCGGGGAAAAAGGGGUGGGGAGGGGAAAGUAUUAUGUUACGCCGUUCGGAUCUGCACUU: 0.653
UGGGAGGUGGAUUUUGUUUACUUUUUUAGCUCAUUUCCAGGGGUGGGAAUUUUUUUUUAAUAUGUGUCAUGAAUAAAGUUGUUUUUGAAA: 0.163
CCUGUGCUACACAUCGUAUGUACCGAAUCGGUUUUUUUGGGUUUUUUUGGUUUUUUUGGGGAAAGUAUUAUGUUACGCCGUUCGGAUCUG: -1.03
GUCCUGUGCUACACAUCGUAUGUACCGAAUCGGGGAAAAAAAGGGGUUUGGGGUGGGGAAAGUAUUAUGUUACGCCGUUCGGAUCUGCAC: 0.29
UUUUUCCAGAGCUCACAACGACCUGGGGCUGAGGACAAUGUCCUCAAUGAGAUCGUGAGUAUCUUGCAGCCCACCCAGGUCCCUGAGCAG: -1.25
UCGGAUGGCUUCGCAUUUCCCCAAUACCCCAUUAAACCGUAUCAUCUGAAGAGGAUCCACAGAGCUGUCUUACAUGGUAAUCUAGAGAAA: -0.532

Single results of other studies
PhoQ, residues 284 288 289 292 302 303 GTAMQF — fold induction (PhoP, residues 12 14 15 18 19 SGWQI (Escherichia coli, UniProt P23836); Sort-seq, item: YFP reporter; E. coli; PhoQ-PhoP variant library, with: 10 µM Mg2+; reference: high Mg2+ state, higher = stronger signaling): 1.14

Some of these lines once more (block 3):
UUUUUCCAGAGCUCACAACGACCUGGGGCUGAGGACAAUGUCCUCAAUGAGAUCGUGAGUAUCUUGCAGCCCACCCAGGUCCCUGAGCAG: -1.25
UCGGAUGGCUUCGCAUUUCCCCAAUACCCCAUUAAACCGUAUCAUCUGAAGAGGAUCCACAGAGCUGUCUUACAUGGUAAUCUAGAGAAA: -0.532
